Experimental data from different studies.
Compare with care: the assays were run in different laboratories. Numbers after ± are the reported error.
PPARG: Peroxisome proliferator-activated receptor gamma (PPARG, Homo sapiens, UniProt P37231)
Sequence of UniProt P37231 (whole entry, looked up): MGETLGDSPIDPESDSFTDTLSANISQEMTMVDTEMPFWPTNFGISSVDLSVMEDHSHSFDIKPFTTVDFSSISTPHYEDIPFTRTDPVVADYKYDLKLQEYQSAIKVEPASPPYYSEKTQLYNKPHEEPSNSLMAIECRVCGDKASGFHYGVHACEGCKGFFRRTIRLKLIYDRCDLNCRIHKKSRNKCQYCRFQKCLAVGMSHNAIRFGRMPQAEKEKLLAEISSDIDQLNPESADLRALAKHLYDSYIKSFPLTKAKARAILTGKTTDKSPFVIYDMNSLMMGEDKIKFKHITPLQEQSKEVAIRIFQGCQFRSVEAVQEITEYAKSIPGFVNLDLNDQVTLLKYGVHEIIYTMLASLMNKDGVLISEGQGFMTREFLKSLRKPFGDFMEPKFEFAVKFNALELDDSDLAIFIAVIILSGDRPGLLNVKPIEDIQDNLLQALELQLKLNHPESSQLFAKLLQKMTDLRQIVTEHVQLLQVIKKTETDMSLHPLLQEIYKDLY

SMILES	target or system	test	system	conditions	scale	quantity	value
COC(=O)c1cc(NC2=NC(=O)C(=Cc3ccc(N(C)C)cc3)S2)ccc1OC(C)=O	MCF7	GC-MS, refers to: Oxalic acid	–	1 µM	relative to: DMSO	metabolite level	0.37 fold change
Cn1ncc2cc(-c3cncc(Cl)c3N3CCC4(CCNC4=O)CC3)ccc21	LS174T	gene expression, microarray, refers to: PPP1R3C mRNA	–	concentration not given, 24 h	relative to: untreated cells	log2 fold change	3
O=C(NCc1ccc(OC(F)(F)F)cc1)[C@H]1CCCN(c2ncnc3[nH]c(-c4cccs4)cc23)C1	NCI-H2228	cell growth or viability, MTT	–	5 µg/mL, 72 h	–	inhibition	74.6%
CCN(C(=O)c1cc(F)ccc1Oc1nncnc1N1CCC2(C1)CN([C@H](CCCN(C)CCOC)C(C)C)C2)C(C)C	A204	–	muscle	168 h	–	GI50	> 10000 nM
Cc1noc(C)c1-c1cc2c(N3CCC[C@H](C(=O)NCc4ccc(OC(F)(F)F)cc4)C3)ncnc2[nH]1	NCI-H2228	cell growth or viability, MTT	–	1 µg/mL, 72 h	–	inhibition	70.7%
Cc1c(Cc2cccc(OC(C(=O)O)C3CC3)c2)c2ccc(C(=O)NC(C)c3cccc(C(C)(C)C)c3)cc2n1C (mixture of isomers)	PPARG	ligand displacement, TR-FRET	–	–	–	IC50	118 nM
Cc1cc(NC2CCN(C)CC2)ccc1-c1cc2c(N3CCC[C@H](C(=O)NCc4ccc(Cl)nc4)C3)ncnc2[nH]1	NCI-H2228	cell growth or viability, MTT	–	0.2 µg/mL, 72 h	–	inhibition	18.9%
COC1CN([C@H]2CC[C@H]([C@@]3(C)Oc4c(Cl)cc(C(=O)NCc5c(SC)cc(C)[nH]c5=O)c(C)c4O3)CC2)C1	–	RNA-seq, refers to: ZNF704	human, whole blood	dose not given, 24 h	relative to: pretreatment baseline	log2 fold change	2.96
O=C(NCc1ccc(OC(F)(F)F)cc1)[C@H]1CCCN(c2ncnc3[nH]c(-c4cccnc4)cc23)C1	NCI-H2228	cell growth or viability, MTT	–	1 µg/mL, 72 h	–	inhibition	72%
CCc1nnc(NC(=O)c2cccc(C(=O)Nc3nnc(CC)s3)n2)s1	LDR	silenced CMV-GFP reporter derepression, qHTS	–	–	–	efficacy	136%
O=C(NCc1ccc(OC(F)(F)F)cc1)[C@H]1CCCN(c2ncnc3[nH]c(-c4ccccc4)cc23)C1	NCI-H2228	cell growth or viability, MTT	–	0.04 µg/mL, 72 h	–	inhibition	11.5%
C=CC(=O)Nc1cccc(Cn2ncc3cnc(Nc4cnn(CCOC)c4)nc32)c1	human ABL1-nonphosphorylated	KINOMEscan	–	100 nM	relative to: control	binding	2.1%
COc1cccc(OC)c1-c1cc(C(=O)NC2(C(=O)O)C3CC4CC(C3)CC2C4)nn1-c1ccc(C(=O)N(C)CCOCCN(C)C(=O)[C@H](CCCCNC(=O)[C@H](CC(C)C)NC(=O)C2OC2C(=O)O)NC(=O)CN2CCN(CC(=O)[O-])CCN(CC(=O)[O-])CCN(CC(=O)[O-])CC2)cc1C(C)C.[177Lu+3] (mixture of isomers)	HT-29	–	–	concentration not given, 60 min	relative to: added activity	internalized fraction	3.29 ± 0.21%
CNS(=O)(=O)Nc1nccc(Cc2c(C)c3ccc(Oc4ncccc4F)cc3oc2=O)c1F	ARH-77	cell viability	–	7 days	–	IC50	> 1000 nM
CN1CCCNC(=O)c2cccc(c2)C(=O)NCCCN(C)CCCNc2cccc3c2C(=O)c2cccc(c2C3=O)NCCC1	SAS	RNA-Seq, refers to: ADAP2 mRNA	–	1 µM, 6 h	relative to: untreated cells	log2 fold change	4.34
CO[C@@H]1[C@@H](OC(N)=O)[C@@H](O)[C@H](Oc2ccc3c(O)c(NC(=O)c4ccc(O)c(CC=C(C)C)c4)c(=O)oc3c2C)OC1(C)C	HCT-116 parental	–	–	100 µM	relative to: untreated	colony survival	81.2%
CC(C)c1ccc(N(C)c2ccc3c(c2)OCC[C@H]3CNc2cnccc2C(=O)O)cc1	NCI-H1155	cell viability, CellTiter-Glo	–	7 days	–	IC50	0.765 nM
Cc1c(Cc2cccc(OC(C)(C)C(=O)O)c2)c2ccc(C(=O)N[C@@H](C)c3cccc(C#N)c3)cc2n1C	PPARG	ligand displacement, TR-FRET	–	–	–	IC50	18 nM
CCN(CC)CC(=O)Nc1cccc(-n2cc(-c3ccc4ccc(-c5cn(-c6cccc(NC(=O)CN(CC)CC)c6)nn5)cc4c3)nn2)c1	RCC4	PCR angiogenesis array, refers to: PF4	–	5 x IC50, 4 h, normoxia	relative to: untreated	fold regulation	1.06
Cc1ncsc1-c1ccc(C(C)NC(=O)C2CC(O)CN2C(=O)C(NC(=O)CCCCCCCCCCN2CCCC(Nc3ncc(Cl)c(Nc4ccccc4S(=O)(=O)C(C)C)n3)C2)C(C)(C)C)cc1 (centres unmarked)	22Rv1	RNA-seq, refers to: TSPEAR-AS1	–	concentration not given	relative to: DMSO	log2 fold change	-2.53

For quick reference, copied from above:
SMILES	target or system	test	system	conditions	scale	quantity	value
C=CC(=O)Nc1cccc(Cn2ncc3cnc(Nc4cnn(CCOC)c4)nc32)c1	human ABL1-nonphosphorylated	KINOMEscan	–	100 nM	relative to: control	binding	2.1%
CC(C)c1ccc(N(C)c2ccc3c(c2)OCC[C@H]3CNc2cnccc2C(=O)O)cc1	NCI-H1155	cell viability, CellTiter-Glo	–	7 days	–	IC50	0.765 nM
COC(=O)c1cc(NC2=NC(=O)C(=Cc3ccc(N(C)C)cc3)S2)ccc1OC(C)=O	MCF7	GC-MS, refers to: Oxalic acid	–	1 µM	relative to: DMSO	metabolite level	0.37 fold change
